Assay results of several laboratories.
Each line is one published result; not all experiments were run side by side. Numbers after ± are the reported error.
CYP2D6: Cytochrome P450 2D6 (CYP2D6, Homo sapiens, UniProt P10635)
Sequence of UniProt P10635 (whole entry, looked up): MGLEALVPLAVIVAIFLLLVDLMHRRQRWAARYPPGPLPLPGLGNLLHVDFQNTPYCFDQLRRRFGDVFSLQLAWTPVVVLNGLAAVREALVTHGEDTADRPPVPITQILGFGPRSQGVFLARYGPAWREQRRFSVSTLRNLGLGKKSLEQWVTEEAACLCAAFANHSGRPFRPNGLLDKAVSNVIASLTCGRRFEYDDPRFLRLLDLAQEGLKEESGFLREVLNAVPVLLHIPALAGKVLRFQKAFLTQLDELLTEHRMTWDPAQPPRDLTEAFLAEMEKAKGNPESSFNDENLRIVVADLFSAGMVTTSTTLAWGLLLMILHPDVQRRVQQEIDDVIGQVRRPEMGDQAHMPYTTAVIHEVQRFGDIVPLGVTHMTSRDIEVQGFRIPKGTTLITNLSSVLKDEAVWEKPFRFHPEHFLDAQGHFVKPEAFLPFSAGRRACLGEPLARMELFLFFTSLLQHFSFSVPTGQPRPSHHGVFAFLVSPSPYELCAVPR
KCNH2: Voltage-gated inwardly rectifying potassium channel KCNH2 (KCNH2, Homo sapiens, UniProt Q12809)
Sequence of UniProt Q12809 (whole entry, looked up): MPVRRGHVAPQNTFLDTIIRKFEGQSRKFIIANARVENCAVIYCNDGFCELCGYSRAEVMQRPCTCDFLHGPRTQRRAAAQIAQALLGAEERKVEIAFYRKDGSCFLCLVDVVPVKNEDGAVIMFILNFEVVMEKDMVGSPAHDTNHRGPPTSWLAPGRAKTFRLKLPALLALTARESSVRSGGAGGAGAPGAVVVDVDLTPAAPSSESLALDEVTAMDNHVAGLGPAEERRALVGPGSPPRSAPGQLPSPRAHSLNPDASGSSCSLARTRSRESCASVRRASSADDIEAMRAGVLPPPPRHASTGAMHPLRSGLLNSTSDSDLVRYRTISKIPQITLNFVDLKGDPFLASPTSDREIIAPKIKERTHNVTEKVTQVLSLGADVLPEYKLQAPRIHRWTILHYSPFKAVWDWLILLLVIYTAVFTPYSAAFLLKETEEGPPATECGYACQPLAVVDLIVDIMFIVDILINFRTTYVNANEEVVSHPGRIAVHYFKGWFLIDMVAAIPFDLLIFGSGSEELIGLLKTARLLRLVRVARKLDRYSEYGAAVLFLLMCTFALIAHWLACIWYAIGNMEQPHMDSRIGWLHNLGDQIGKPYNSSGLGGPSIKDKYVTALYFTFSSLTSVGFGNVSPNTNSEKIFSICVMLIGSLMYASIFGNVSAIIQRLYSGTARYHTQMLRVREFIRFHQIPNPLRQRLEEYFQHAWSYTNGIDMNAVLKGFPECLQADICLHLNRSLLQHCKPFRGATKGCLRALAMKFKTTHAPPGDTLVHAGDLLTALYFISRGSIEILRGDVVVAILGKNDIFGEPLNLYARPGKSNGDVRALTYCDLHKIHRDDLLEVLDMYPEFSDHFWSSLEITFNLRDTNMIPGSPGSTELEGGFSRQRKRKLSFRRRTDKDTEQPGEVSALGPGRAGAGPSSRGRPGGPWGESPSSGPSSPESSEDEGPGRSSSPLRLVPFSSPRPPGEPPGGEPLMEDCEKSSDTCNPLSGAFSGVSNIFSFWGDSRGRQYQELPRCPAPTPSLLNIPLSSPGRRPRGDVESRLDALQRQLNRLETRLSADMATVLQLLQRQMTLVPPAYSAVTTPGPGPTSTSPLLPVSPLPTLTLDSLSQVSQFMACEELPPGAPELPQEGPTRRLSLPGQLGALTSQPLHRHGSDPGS
CYP2B6: Cytochrome P450 2B6 (CYP2B6, Homo sapiens, UniProt P20813)
SLCO1B1: Solute carrier organic anion transporter family member 1B1 (SLCO1B1, Homo sapiens, UniProt Q9Y6L6)
Sequence of UniProt Q9Y6L6 (whole entry, looked up): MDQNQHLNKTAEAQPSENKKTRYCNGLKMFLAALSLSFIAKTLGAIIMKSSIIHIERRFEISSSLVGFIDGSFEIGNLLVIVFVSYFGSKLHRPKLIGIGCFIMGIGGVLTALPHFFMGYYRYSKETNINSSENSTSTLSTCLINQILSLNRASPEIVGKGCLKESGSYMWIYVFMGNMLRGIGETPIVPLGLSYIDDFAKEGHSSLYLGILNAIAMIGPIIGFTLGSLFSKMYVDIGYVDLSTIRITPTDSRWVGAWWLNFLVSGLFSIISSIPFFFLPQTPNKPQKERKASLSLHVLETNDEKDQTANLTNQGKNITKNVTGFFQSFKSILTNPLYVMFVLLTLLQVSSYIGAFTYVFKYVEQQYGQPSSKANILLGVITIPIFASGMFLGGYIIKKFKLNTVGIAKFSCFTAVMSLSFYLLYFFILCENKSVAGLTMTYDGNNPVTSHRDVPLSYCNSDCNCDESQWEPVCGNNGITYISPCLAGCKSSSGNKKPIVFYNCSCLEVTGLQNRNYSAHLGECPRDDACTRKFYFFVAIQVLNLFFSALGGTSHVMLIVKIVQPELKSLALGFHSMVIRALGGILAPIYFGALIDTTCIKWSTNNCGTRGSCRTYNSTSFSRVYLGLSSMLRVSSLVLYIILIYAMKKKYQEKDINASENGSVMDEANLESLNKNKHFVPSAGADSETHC
Sequence of UniProt P15145 (whole entry, looked up): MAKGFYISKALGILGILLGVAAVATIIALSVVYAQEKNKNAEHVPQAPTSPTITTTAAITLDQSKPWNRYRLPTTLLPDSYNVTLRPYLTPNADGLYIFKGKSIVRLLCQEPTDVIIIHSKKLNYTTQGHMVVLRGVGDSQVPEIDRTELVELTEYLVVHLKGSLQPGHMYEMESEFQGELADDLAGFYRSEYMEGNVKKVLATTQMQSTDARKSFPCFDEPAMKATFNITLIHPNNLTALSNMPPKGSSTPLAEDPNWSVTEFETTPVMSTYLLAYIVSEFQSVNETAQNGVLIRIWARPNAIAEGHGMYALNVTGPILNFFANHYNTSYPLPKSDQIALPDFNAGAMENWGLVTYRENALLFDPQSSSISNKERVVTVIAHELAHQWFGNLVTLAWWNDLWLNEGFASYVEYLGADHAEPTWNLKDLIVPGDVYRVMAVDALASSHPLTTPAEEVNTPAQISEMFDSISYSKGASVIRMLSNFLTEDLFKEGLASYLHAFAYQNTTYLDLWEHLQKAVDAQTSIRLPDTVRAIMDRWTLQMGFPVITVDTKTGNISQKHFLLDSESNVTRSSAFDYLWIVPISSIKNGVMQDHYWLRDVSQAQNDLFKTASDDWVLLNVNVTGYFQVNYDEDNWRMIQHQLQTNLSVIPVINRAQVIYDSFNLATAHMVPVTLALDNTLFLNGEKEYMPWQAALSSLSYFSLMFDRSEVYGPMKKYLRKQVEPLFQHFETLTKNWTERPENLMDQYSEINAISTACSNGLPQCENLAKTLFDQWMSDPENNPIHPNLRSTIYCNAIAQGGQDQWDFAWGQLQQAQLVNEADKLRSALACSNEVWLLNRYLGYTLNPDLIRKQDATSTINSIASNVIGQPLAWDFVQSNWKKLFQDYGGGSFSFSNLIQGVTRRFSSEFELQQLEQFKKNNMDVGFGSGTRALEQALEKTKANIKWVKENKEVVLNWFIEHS
Sequence of UniProt P58406 (whole entry, looked up): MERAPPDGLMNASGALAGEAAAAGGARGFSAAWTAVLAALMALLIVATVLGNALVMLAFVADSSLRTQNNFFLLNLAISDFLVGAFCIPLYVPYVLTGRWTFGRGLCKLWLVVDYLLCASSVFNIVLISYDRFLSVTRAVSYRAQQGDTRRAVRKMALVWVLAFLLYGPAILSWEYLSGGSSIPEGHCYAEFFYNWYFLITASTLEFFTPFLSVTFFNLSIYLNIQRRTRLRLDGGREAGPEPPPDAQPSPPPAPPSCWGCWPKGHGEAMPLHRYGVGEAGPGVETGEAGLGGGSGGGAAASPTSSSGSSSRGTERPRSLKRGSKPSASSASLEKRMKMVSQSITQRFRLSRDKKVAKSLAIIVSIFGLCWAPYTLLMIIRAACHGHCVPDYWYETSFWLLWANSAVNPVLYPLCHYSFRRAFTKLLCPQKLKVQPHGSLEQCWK
Sequence of UniProt P61073 (whole entry, looked up): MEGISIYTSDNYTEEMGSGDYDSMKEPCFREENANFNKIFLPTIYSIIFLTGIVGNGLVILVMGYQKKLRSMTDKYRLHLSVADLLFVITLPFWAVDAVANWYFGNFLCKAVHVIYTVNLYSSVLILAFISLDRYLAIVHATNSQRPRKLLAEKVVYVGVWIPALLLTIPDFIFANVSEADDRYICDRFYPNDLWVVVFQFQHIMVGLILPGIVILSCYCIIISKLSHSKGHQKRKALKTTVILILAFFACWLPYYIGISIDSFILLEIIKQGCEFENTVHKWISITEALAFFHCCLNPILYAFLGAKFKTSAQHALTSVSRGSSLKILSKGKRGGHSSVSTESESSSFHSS
Sequence of UniProt P00729 (whole entry, looked up): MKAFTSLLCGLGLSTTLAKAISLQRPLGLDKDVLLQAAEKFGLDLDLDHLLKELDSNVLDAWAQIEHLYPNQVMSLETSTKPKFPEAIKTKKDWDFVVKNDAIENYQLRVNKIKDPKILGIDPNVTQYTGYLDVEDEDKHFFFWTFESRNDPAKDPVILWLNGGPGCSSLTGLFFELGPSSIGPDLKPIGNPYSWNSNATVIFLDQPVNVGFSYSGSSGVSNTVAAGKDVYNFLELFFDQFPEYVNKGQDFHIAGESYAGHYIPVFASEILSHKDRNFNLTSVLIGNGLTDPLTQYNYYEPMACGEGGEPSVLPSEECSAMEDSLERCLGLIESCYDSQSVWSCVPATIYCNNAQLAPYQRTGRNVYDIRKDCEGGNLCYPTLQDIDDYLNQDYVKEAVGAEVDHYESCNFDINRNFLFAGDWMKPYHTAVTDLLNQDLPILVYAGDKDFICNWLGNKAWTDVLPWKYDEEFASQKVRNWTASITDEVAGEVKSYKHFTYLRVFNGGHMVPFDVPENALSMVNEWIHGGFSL

Compound	target	assay	system	setting	scale	endpoint	value
CNC(=O)CC[C@@H](NC(=O)[C@@H](Cc1ccc(OP(=O)(O)O)cc1)NC(=O)[C@@H](Cc1ccccc1)NC(=O)[C@@H](Cc1ccccc1)NC(=O)Cc1ccc2ccccc2c1)C(=O)NC	alkaline phosphatase	substrate	HepG2	200 µM, 24 h		dephosphorylated fraction	47.6%
O=C1Cc2cc(CCN3CCN(C4=NS(=O)(=O)c5ccccc54)CC3)c(Cl)cc2N1	CYP2D6	inhibitor	human liver microsomes	10 µM, pH 7.4, together with: dextromethorphan		inhibition	< 0%
[64Cu+2].c1ccc(CNCc2ccc(CN3CCCNCCNCCCNCC3)cc2)nc1	CXCR4		NOD/SCID mouse, U87 and U87-stb-CXCR4 xenografts	iv, 90 min, no blocking dose	baseline: U87-stb-CXCR4 tumour over muscle	tumour-to-muscle ratio	104 ± 9.97
CC(C)OC(=O)[C@H](C)NP(=S)(Oc1ccccc1)c1ccccc1 (some centres unmarked)	Carboxypeptidase Y (Saccharomyces cerevisiae, UniProt P00729)	substrate, LC-MS/MS		5 µM, pH 7.4, 37 °C		half-life	0.648 h
CC[C@H](C)[C@H](NC(=O)[C@H](CC(N)=O)NC(=O)[C@H](Cc1ccccc1)NC(=O)CNC(=O)[C@H](CC(C)C)NC(=O)[C@H](Cc1ccccc1)NC(=O)[C@H](Cc1ccccc1)NC(=O)Cc1ccc2ccccc2c1)C(=O)O	proteinase K	substrate	hydrogel diluted with water	24 h, 37 °C, together with: proteinase K 3.2 U/mL		remaining compound	63.1 ± 1%
C=CC1CN2CCC1CC2C(O)c1c(-c2ccc(N=Nc3ccccc3)cc2)cnc2ccc(OC)cc12 (centres unmarked)	KCNH2	potassium current, whole-cell patch clamp		10 µM, pH 7.3, together with: light 365 versus 480 nm		photoswitching efficacy	7.9 ± 4.5%
CC#N.O=S(=O)([O-])C(F)(F)F.O=S(=O)([O-])C(F)(F)F.Oc1ccc(O)c(CN(CCN(Cc2ccccn2)Cc2ccccn2)Cc2ccccn2)c1.[Mn+2]	Mn(II) complex, pyridine group	potentiometric pH titration		25 °C, 100 mM KCl		pKa	3.1
CCCCCc1cc(O)c2c(c1)OC(C)(C)C1CCC(C(=O)OC3OC(C(=O)O)C(O)C(O)C3O)=CC21 (centres unmarked)	CYP2B6	inhibitor	HEK293 overexpressing CYP2B6, recombinant microsomes	concentration not given, together with: efavirenz		inhibition	inhibited
CC(C)(O)c1ccccc1CC[C@H](c1cccc(/C=C/c2ccc3ccc(Cl)cc3n2)c1)[S+]([O-])CC1(CC(=O)O)CC1 (some centres unmarked)	CYP2D6	inhibitor	human liver microsomes	10 µM, pH 7.4, together with: dextromethorphan		inhibition	< 0%
CCN(CC)CCOc1ccc(-c2nnn(Cc3ccc(OC)cc3)c2N)cc1	CYP2B6	enzyme activity, inhibitor		concentration not given		inhibition	no inhibition
CNC(=O)Oc1cc(C)c([S+](C)[O-])c(C)c1 (centres unmarked)	CYP2D6	inhibitor	human liver microsomes	10 µM, pH 7.4, together with: dextromethorphan		inhibition	< 0%
CC[C@H](C)[C@H](NC(=O)[C@H](C)NC(=O)[C@@H](NC(=O)[C@H](CC(=O)O)NC(=O)[C@H](CCCCN)NC(=O)[C@H](CO)NC(=O)[C@@H](NC(=O)[C@H](CC(N)=O)NC(=O)[C@H](C)NC(=O)[C@@H](NC(=O)[C@H](CCC(=O)O)NC(=O)[C@H](CCCCN)NC(=O)[C@@H](NC(=O)[C@@H](NC(=O)[C@H](Cc1c[nH]cn1)NC(=O)[C@H](CCCCN)NC(=O)[C@@H](NC(=O)[C@H](CCCCN)NC(=O)[C@H](CCCCN)NC(=O)[C@@H](NC(=O)[C@H](CC(C)C)NC(=O)[C@H](CCCCN)NC(=O)[C@H](CC(N)=O)NC(=O)[C@H](Cc1ccccc1)NC(=O)[C@H](CCCNC(=N)N)NC(=O)[C@H](CCCCN)NC(=O)[C@H](CCCNC(=N)N)NC(=O)[C@H](Cc1ccccc1)NC(=O)CN)C(C)C)C(C)C)[C@@H](C)O)[C@@H](C)CC)[C@@H](C)O)C(C)C)C(C)C)C(=O)N[C@H](C(=O)N[C@@H](C)C(=O)NCC(=O)N[C@@H](CO)C(=O)NCC(=O)N[C@H](C(=O)N[C@@H](C)C(=O)N[C@H](C(=O)NCC(=O)N[C@@H](C)C(=O)N[C@@H](C)C(=O)N[C@@H](CCSC)C(N)=O)C(C)C)C(C)C)C(C)C	KCNH2	potassium current, automated patch clamp				highest inactive concentration	> 30 µM
Cc1cccc(C)c1OCC(=O)N[C@@H](Cc1ccccc1)[C@H](C[C@H](Cc1ccccc1)NC(=O)[C@H](C(C)C)N1CCCNC1=O)OC(=O)[C@H](CC(C)C)NC(=O)[C@@H](N)Cc1cnc[nH]1	ABCC2 (Homo sapiens, UniProt Q92887)		MDCK-MRP2	concentration not given	baseline: compound over lopinavir	A-B permeability ratio	~4.1 fold
NCC(=O)N[C@@H](Cc1ccccc1)C(=O)N[C@@H](Cc1ccccc1)C(=O)N[C@@H](CC(=O)O)C(=O)O	Aminopeptidase N (ANPEP, Sus scrofa, UniProt P15145)	peptide degradation, substrate, MS		pH 7.5, 37 °C		degradation time	≤ 5 h
C=CC(=O)Nc1cc(Nc2nccc(-c3cn(C)c4ccccc34)n2)c(OCC(F)(F)F)nc1N(C)CCN(C)C	Cytochrome P450 3A4 (CYP3A4, Homo sapiens, UniProt P08684)	enzyme activity, inhibitor	human, liver microsomes	33.3 µM, midazolam probe		activity vs control	66%
CNC(=O)Oc1cc(C)c(S(C)(=O)=O)c(C)c1	CYP2D6	inhibitor	human liver microsomes	10 µM, pH 7.4, together with: dextromethorphan		inhibition	< 0%
C=C(C)[C@@H]1CCC(C(=O)O)=C[C@H]1c1c(O)cc(CCCCC)cc1O	CYP3A4/CYP2C19		human	dose not given, single dose, together with: rifampicin steady state		decrease in AUC(0-tau)	44%
CC(CCC(=O)NCC(=O)O)C1CCC2C3CCC4CC(OC5OC(C(=O)O)C(O)C(O)C5O)CCC4(C)C3CC(O)C12C (centres unmarked)	SLCO1B1	substrate	HEK293 transfected	1 µM, 2 min	baseline: wild-type HEK293	uptake ratio	78 ± 6.9
CC[C@@H]1CN2CCc3c([nH]c4cccc(OC)c34)[C@@H]2C[C@@H]1/C(=C\OC)C(=O)OC	UDP-glucuronosyltransferase, rat	4-MU glucuronidation, inhibitor	rat liver microsomes	30 min, pH 7.4, together with: 4-methylumbelliferone 100 µM		IC50	> 100 µM
C=C(C)[C@@H]1CCC(CO)=C[C@H]1c1c(O)cc(CCCCC)cc1O	CYP3A4/CYP2C19		human	dose not given, single dose, together with: rifampicin 600 mg once daily		half-life	11.7 h
CC(C)(O)c1ccccc1CC[C@H](c1cccc(/C=C/c2ccc3ccc(Cl)cc3n2)c1)S(=O)(=O)CC1(CC(=O)O)CC1	CYP2D6	inhibitor	human liver microsomes	2 µM, pH 7.4, together with: dextromethorphan		inhibition	< 0%
Cc1cn2c(C(=O)NCc3ccc(C(F)(F)F)cc3)c(C)nc2s1	CYP2B6	inhibitor				IC50	> 20 µM
CC(CCC(=O)NCC(=O)O)C1CCC2C3C(O)CC4CC(OC5OC(C(=O)O)C(O)C(O)C5O)CCC4(C)C3CCC12C (centres unmarked)	SLCO1B1	substrate			baseline: OATP1B1 over OATP1B3 or OATP2B1	uptake ratio	≥ 6
O=C(O)CC[C@@H](NC(=O)CNC(=O)[C@@H](Cc1ccccc1)NC(=O)[C@@H](Cc1ccccc1)NC(=O)Cc1ccc2ccccc2c1)C(=O)N[C@H](Cc1ccc(OP(=O)(O)O)cc1)C(=O)O	proteinase K	proteolytic stability		200 µM, 32 h, together with: proteinase K 3 U/mL		remaining compound	> 93%
C[C@@H]1CCCN1CCc1cc2cc(C(=O)c3ccc([18F])cc3)ccc2o1	Hrh3 (Mus musculus, UniProt P58406)	PET	mouse, whole brain	intravenous, baseline		time of peak brain uptake	~6.5 min
CN1C(=O)[C@@H](Cc2ccc(O)cc2)NC(=O)CNC(=O)[C@H](Cc2ccc3ccccc3c2)NC(=O)[C@H](CCCNC(=N)N)NC(=O)[C@H]1CCCNC(=O)c1ccc(CNC(=O)CN2CCN(CC(=O)O)CCN(CC(=O)O)CCN(CC(=O)O)CC2)cc1 [gallium-68 labelled]	CXCR4 (Homo sapiens, UniProt P61073)	PET	human, nodal lesions			SUVmean	5.05
